# Earlier results as cited in several papers.
# Values joined by “and” are separate records of one study, mostly repeats; a detail may differ. Numbers after ± are the reported error.
# Sequence of UniProt Q96L34 (whole entry, looked up): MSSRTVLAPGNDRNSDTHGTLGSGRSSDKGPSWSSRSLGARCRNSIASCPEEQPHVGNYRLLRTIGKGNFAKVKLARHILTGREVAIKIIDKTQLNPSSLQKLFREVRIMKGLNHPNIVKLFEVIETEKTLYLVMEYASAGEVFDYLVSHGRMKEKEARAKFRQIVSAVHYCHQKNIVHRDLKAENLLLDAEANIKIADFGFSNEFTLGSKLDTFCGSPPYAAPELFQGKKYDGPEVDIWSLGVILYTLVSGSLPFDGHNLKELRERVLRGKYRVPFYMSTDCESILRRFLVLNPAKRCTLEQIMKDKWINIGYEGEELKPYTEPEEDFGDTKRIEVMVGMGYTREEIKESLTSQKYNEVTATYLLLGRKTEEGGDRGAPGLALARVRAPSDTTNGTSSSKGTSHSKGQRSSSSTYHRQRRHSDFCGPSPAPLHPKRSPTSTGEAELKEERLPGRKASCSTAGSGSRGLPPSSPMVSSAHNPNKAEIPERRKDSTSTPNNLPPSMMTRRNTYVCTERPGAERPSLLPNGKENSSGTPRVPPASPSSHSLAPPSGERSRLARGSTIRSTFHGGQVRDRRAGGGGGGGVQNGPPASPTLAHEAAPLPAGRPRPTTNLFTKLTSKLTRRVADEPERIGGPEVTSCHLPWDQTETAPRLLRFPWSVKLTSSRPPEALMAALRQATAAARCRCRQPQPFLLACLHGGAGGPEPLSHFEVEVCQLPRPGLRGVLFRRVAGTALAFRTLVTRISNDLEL
SMILES,tested on,test,system,conditions,how to read,quantity,result
CC(C)(O/N=C(\C(=O)N[C@@H]1C(=O)N2C(C(=O)[O-])=C(C[n+]3ccccc3)CS[C@H]12)c1csc(N)n1)C(=O)O,Escherichia coli,,clinical isolate RKI-No_521/16,,,MIC,≤ 2 µg/mL
[N-]=[N+]=N[C@]1(CO)O[C@@H](n2ccc(N)nc2=O)[C@@H](F)[C@@H]1O,2209-23 HCV replicon cells,cytotoxicity,,,,CC50,> 100 µM
COC(=O)c1ccc2c(c1)NC(=O)/C2=C(\Nc1ccc(N(C)C(=O)CN2CCN(C)CC2)cc1)c1ccccc1,HepG2,mitochondrial membrane potential,,"concentration not given, Tox21",,mitochondrial toxicity,active
CC1(C)S[C@@H]2[C@H](NC(=O)[C@H](N)c3ccccc3)C(=O)N2[C@H]1C(=O)O,Acinetobacter baumannii,,clinical isolate RKI-No_377/15,,,MIC,> 16 µg/mL
CCC(CC)COC(=O)[C@H](C)N[P@](=O)(OC[C@H]1O[C@@](C#N)(c2ccc3c(N)ncnn23)[C@H](O)[C@@H]1O)Oc1ccccc1,Calu-3,cytotoxicity,,,,CC50,> 100 µM
Cc1nc(-c2nnc3n2CCN(C(=O)c2ccc(-c4cccs4)cc2)[C@@H]3C)cs1,Caco-2,,,together with: 0.1% BSA,,efflux ratio,0.9
COc1cccc2c1C(=O)c1c(O)c3c(c(O)c1C2=O)C[C@@](O)(C(=O)CO)C[C@@H]3O[C@H]1C[C@H](N)[C@H](O)[C@H](C)O1,COLO 320 ABCB1-resistant colon,cytotoxicity,,,,IC50,3.12 µM and 2.96 µM
Cc1ccc(O)c([C@H](CCN(C(C)C)C(C)C)c2ccccc2)c1,HepG2,mitochondrial membrane potential,,"concentration not given, Tox21",,mitochondrial toxicity,active
Nc1cc(C(F)(F)F)c(-c2nc(N3CCOCC3)nc(N3CCOCC3)n2)cn1,"MAP/microtubule affinity-regulating kinase 4 (MARK4, Homo sapiens, UniProt Q96L34)",enzyme activity,,10 µM,baseline: untreated,remaining activity,76%
O=C(O)c1cn(C2CC2)c2cc(N3CCNCC3)c(F)cc2c1=O,HepG2,mitochondrial membrane potential,,"concentration not given, Tox21",,activity outcome,inactive
Nc1ccccc1NC(=O)c1ccc(CNC(=O)OCc2cccnc2)cc1,HL-60,"cell viability, MTT",,,,IC50,0.939 ± 0.059 µM
CN(C)C/C=C/C(=O)Nc1cc2c(Nc3ccc(F)c(Cl)c3)ncnc2cc1O[C@H]1CCOC1,Caco-2,,,3 µM,,Papp A to B,2.08 ± 0.56 ×10⁻⁶ cm/s
